{"data": "Literature values that unrelated publications cite", "note": "Numbered parts are unrelated; values within a part may stem from several laboratories.", "sequence of UniProt P42336 (whole entry, unmodified, looked up)": "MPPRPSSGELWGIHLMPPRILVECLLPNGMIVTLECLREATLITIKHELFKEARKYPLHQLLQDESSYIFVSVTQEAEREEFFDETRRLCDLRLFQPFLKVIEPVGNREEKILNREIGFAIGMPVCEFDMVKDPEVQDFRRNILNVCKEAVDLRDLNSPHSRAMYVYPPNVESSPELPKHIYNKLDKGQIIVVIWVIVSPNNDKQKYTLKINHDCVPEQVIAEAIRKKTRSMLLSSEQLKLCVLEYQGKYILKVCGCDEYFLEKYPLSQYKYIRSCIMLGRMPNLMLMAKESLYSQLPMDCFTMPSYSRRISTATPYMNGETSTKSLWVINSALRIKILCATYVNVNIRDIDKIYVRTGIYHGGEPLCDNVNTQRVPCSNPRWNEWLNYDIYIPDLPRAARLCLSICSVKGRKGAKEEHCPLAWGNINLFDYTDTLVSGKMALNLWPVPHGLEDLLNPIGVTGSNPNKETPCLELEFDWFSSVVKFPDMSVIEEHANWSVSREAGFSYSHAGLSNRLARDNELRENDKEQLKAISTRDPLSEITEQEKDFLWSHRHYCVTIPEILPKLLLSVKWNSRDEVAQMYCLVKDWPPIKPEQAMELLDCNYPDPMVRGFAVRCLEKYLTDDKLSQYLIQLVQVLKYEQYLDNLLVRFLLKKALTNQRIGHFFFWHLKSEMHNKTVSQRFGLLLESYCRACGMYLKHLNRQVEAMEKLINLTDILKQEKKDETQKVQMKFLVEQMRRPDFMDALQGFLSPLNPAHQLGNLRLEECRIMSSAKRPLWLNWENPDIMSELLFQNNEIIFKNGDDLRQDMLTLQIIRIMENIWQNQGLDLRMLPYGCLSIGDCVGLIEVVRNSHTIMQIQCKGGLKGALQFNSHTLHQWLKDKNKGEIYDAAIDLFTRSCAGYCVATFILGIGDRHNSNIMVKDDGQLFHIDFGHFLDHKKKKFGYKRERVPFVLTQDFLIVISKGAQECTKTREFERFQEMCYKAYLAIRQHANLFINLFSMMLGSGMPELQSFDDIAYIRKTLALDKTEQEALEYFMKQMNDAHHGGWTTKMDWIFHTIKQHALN", "sequence of UniProt P08684 (whole entry, looked up)": "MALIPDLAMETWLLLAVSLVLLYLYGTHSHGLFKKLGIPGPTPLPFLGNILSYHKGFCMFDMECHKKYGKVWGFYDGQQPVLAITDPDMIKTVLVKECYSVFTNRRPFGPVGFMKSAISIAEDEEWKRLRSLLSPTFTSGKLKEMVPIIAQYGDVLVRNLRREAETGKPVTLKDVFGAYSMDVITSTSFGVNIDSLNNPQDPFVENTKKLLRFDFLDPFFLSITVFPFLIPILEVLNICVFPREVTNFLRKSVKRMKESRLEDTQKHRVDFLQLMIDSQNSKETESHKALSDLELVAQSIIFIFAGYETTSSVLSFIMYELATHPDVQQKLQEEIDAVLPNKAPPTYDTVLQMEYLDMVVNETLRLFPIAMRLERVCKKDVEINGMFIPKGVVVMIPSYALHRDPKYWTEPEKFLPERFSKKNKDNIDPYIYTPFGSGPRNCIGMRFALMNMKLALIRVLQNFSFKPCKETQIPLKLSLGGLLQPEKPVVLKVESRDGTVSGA"}
{"data": "Block 1", "target": "HLA class I histocompatibility antigen, A alpha chain, allele A*26:03 (Homo sapiens, UniProt P04439)", "effect on": "peptide-MHC binding", "form": "peptide"}
{"Sequence": "DWSGYSGSF", "IC50": "> 20 µM"}
{"Sequence": "PRFGSCYFL", "IC50": "> 20 µM"}
{"Sequence": "SLFTEQAFY", "IC50": "> 20 µM"}
{"Sequence": "MGKTITDVK", "IC50": "> 20 µM"}
{"Sequence": "LFNTIATLY", "IC50": "> 20 µM"}
{"Sequence": "REIGDISYL", "IC50": "> 20 µM"}
{"Sequence": "SHEGEGIPL", "IC50": "> 20 µM"}
{"Sequence": "EEIRRIWRQ", "IC50": "> 20 µM"}
{"Sequence": "FLMRNAIQY", "IC50": "> 20 µM"}
{"Sequence": "RHDITGFIL", "IC50": "> 20 µM"}
{"Sequence": "GTEEIKSLY", "IC50": "> 20 µM"}
{"Sequence": "YMYAVSGAL", "IC50": "> 20 µM"}
{"Sequence": "HTIFDFLAY", "IC50": "0.006 µM"}
{"Sequence": "VYSFDESSF", "IC50": "1.42 µM"}
{"Sequence": "IEVKFHPIL", "IC50": "> 20 µM"}
{"Sequence": "IEFIEVVRL", "IC50": "> 20 µM"}
{"Sequence": "AVVEKWLGM", "IC50": "0.056 µM"}
{"Sequence": "SHEQGDIAL", "IC50": "> 20 µM"}
{"Sequence": "EVIKYGIIY", "IC50": "0.059 µM"}
{"Sequence": "TVIRFWHAM", "IC50": "0.001 µM"}
{"Sequence": "KLDFIRNTK", "IC50": "> 20 µM"}
{"Sequence": "RTMPLSRFT", "IC50": "> 20 µM"}
{"Sequence": "VFMDNAFKK", "IC50": "> 20 µM"}
{"Sequence": "NLPSKPVWL", "IC50": "> 20 µM"}
{"Sequence": "GRRPLKNRK", "IC50": "> 20 µM"}
{"data": "Single results of other studies"}
{"SMILES": "CNCCN1C(=O)[C@H](OC(C)=O)[C@H](c2ccc(OC)cc2)Sc2ccccc21", "target or system": "Cytochrome P450 3A4 (CYP3A4, Homo sapiens, UniProt P08684)", "assay": "mechanism-based inhibition, inactivator", "quantity": "KI", "result": "1.74 µM"}
{"SMILES": "C[C@]12CC[C@H]3[C@@H](CCC4=CC(=O)CC[C@@]43C)[C@@H]1CC[C@@H]2O", "target or system": "aromatase (CYP19A1, human placenta)", "assay": "substrate", "quantity": "Km", "result": "210 nM"}
{"SMILES": "CCCCCOc1ccc(-c2cc(-c3ccc(C(=O)N[C@H]4C[C@@H](O)[C@@H](O)NC(=O)[C@@H]5[C@@H](O)[C@@H](C)CN5C(=O)[C@H]([C@H](O)CC(N)=O)NC(=O)[C@H]([C@H](O)[C@@H](O)c5ccc(O)c(OS(=O)(=O)O)c5)NC(=O)[C@@H]5C[C@@H](O)CN5C(=O)[C@H]([C@@H](C)O)NC4=O)cc3)no2)cc1", "system": "healthy Chinese subjects", "quantity": "t_half", "result": "14.8 h"}
{"SMILES": "COC(=O)[C@]12CCC(C)(C)C[C@H]1[C@H]1C(=O)C=C3[C@@]4(C)C=C(C#N)C(=O)C(C)(C)[C@@H]4CC[C@@]3(C)[C@]1(C)CC2", "system": "human", "conditions": "oral, 21 days daily dosing", "quantity": "maximum tolerated dose", "result": "900 mg"}
{"SMILES": "C[C@@H](O)[C@H]1C(=O)N2C(C(=O)O)=C(S[C@@H]3CN[C@H](C(=O)N(C)C)C3)[C@H](C)[C@H]12", "target or system": "Escherichia coli", "system": "AR0346 colistin resistant", "quantity": "MIC", "result": "< 0.12 µg/mL"}
{"SMILES": "c1ccc2c(c1)OCC(C1=NCCN1)O2 (centres unmarked)", "target or system": "imidazoline I2 receptor, brain", "assay": "radioligand binding", "quantity": "IC50", "result": "0.012 µM"}
{"SMILES": "CO[C@@H](C)Cn1c(=O)n(C)c2cnc3ccc(-c4cncc(C(C)(C)O)c4)cc3c21", "system": "human breast cancer patients", "conditions": "together with: fulvestrant", "quantity": "maximum tolerated dose", "result": "200 mg twice daily"}
{"SMILES": "C/C=C1/CN2CC[C@]34C(=C(C(=O)OC)[C@H]1C[C@H]23)Nc1ccccc14", "target or system": "kappa opioid receptor", "quantity": "Ki", "result": "89 nM"}
{"SMILES": "CCCCCCCCCCCCCC(=O)O[C@@H]1[C@@H](C)[C@@]2(O)[C@@H](C=C(CO)C[C@]3(O)C(=O)C(C)=C[C@@H]23)[C@@H]2C(C)(C)[C@]12OC(C)=O", "target or system": "phorbol ester receptor", "assay": "radioligand binding", "quantity": "IC50", "result": "0.00079 µM"}
{"SMILES": "Cc1ccsc1C(=CCCN1CCC[C@@H](C(=O)O)C1)c1sccc1C", "assay": "motor impairment", "system": "mouse", "conditions": "intraperitoneal", "quantity": "TD50", "result": "6 mg/kg"}
{"SMILES": "N.N.[Cl][Pt][Cl]", "system": "cervical cancer patients", "conditions": "dose not given, 3 years, randomized phase II, without triapine, together with: radiation", "quantity": "progression-free survival", "result": "77%"}
{"SMILES": "CCCCCCCC[C@H]1O[C@H]1C/C=C/C=C/[C@H](O)CC(=O)NC1=C[C@](C)(CC)OC1=O", "target or system": "Na+-NQR Vibrio alginolyticus NqrB G140V", "scale": "relative to: mutant over wild type", "quantity": "resistance factor", "result": "~100000"}
{"SMILES": "OC(Cn1cncn1)(Cn1cncn1)c1ccc(F)cc1F", "assay": "perpetrator, measured: diazepam", "system": "human", "conditions": "dose not given", "scale": "relative to: without compound", "quantity": "AUC increase", "result": "150%"}
{"SMILES": "CCN(CC)N=O", "assay": "fingerprint mutation, measured: T>A substitution", "system": "mouse, liver", "conditions": "concentration not given", "quantity": "mutation frequency", "result": "increased"}
{"SMILES": "C/C=C1/CN2CC[C@]34C(=C(C(=O)OC)[C@H]1C[C@H]23)Nc1ccc(I)cc14", "target or system": "kappa opioid receptor", "scale": "relative to: KOR over 5-HT3 receptor", "quantity": "selectivity ratio", "result": 380}
{"SMILES": "C[C@H]1C[C@@H]2[C@H]([C@@H](O)C[C@@]3(C)[C@H]2CC[C@]3(O)C(=O)CO)[C@@]2(C)C=CC(=O)C=C12", "system": "human, plasma", "conditions": "dose not given, range of reported values", "quantity": "AUC", "result": "0.094 to 10.8 µM·h"}
{"SMILES": "C/C=C1/CN2CC[C@]34C(=C(C(=O)OC)[C@H]1C[C@H]23)Nc1ccc(Br)cc14", "target or system": "kappa opioid receptor", "assay": "adenylyl cyclase inhibition", "quantity": "IC50", "result": "0.0039 µM"}
{"SMILES": "Nc1ncc(-c2nc(N3CCOCC3)nc(N3CCOCC3)n2)c(C(F)F)n1", "target or system": "PIK3CA (Homo sapiens, UniProt P42336, H1047L)", "assay": "KinomeScan competition binding", "conditions": "10 µM", "quantity": "remaining binding", "result": "0%"}
{"SMILES": "O=c1[nH]c2ccccc2n1C1CCN(CCCC(c2ccc(F)cc2)c2ccc(F)cc2)CC1", "system": "human, plasma", "conditions": "dose not given, range of reported values", "quantity": "AUC", "result": "0.158 to 0.752 µM·h"}
{"SMILES": "C[C@]12CC[C@@H]3c4ccc(O)cc4C[C@@H](CCCCCCCCC[S+]([O-])CCCC(F)(F)C(F)(F)F)[C@H]3[C@@H]1CC[C@@H]2O (some centres unmarked)", "system": "human, ER+ breast cancer", "conditions": "dose not given", "quantity": "overall survival", "result": "26.4 months"}
{"SMILES": "CC1(C)CCC(CN2CCN(c3ccc(C(=O)NS(=O)(=O)c4ccc(NCC5CCOCC5)c([N+](=O)[O-])c4)c(Oc4cnc5[nH]ccc5c4)c3)CC2)=C(c2ccc(Cl)cc2)C1", "system": "human", "conditions": "oral, 50 mg single dose", "quantity": "AUC", "result": "3.96 µg·h/mL"}
{"SMILES": "CN(C)c1cc(NC(=O)CNC(C)(C)C)c(O)c2c1C[C@H]1C[C@H]3[C@H](N(C)C)C(O)=C(C(N)=O)C(=O)[C@@]3(O)C(O)=C1C2=O", "target or system": "Escherichia coli", "system": "AR0346 colistin resistant", "quantity": "MIC", "result": "< 0.5 µg/mL"}
{"SMILES": "COC[C@@H](NC(C)=O)C(=O)NCc1ccccc1", "system": "rat, male, MES seizure model", "conditions": "intraperitoneal, at time of peak effect", "quantity": "ED50", "result": "3.1 mg/kg"}
{"SMILES": "OCCOc1ccccc1", "system": "plasma", "conditions": "literature value", "quantity": "fraction unbound", "result": 0.56}
{"SMILES": "Nc1ncnc2c1ncn2[C@@H]1O[C@H](COS(N)(=O)=O)[C@@H](O)[C@H]1O", "target or system": "NCI-60 cancer cell lines", "assay": "cell growth", "quantity": "GI50", "result": "1.8 nM"}
{"note": "For quick reference, copied from above (block 1):"}
{"Sequence": "SHEGEGIPL", "IC50": "> 20 µM"}
{"Sequence": "EEIRRIWRQ", "IC50": "> 20 µM"}
{"Sequence": "FLMRNAIQY", "IC50": "> 20 µM"}
{"Sequence": "RHDITGFIL", "IC50": "> 20 µM"}
{"Sequence": "GTEEIKSLY", "IC50": "> 20 µM"}
{"Sequence": "YMYAVSGAL", "IC50": "> 20 µM"}
{"Sequence": "HTIFDFLAY", "IC50": "0.006 µM"}
{"Sequence": "VYSFDESSF", "IC50": "1.42 µM"}
